Assay results from different studies.
Protocols differ between the studies behind these lines.
Target: Protein kinase C theta type (PRKCQ, Homo sapiens, UniProt Q04759)

| SMILES | test | setting | how to read | quantity | result |
| --- | --- | --- | --- | --- | --- |
| Nc1ncc2c(n1)-c1c([nH]c3ccc(C4=CCOCC4)cc13)CCC2 | binding, competition with immobilised ligand | 1 µM |  | remaining binding | 92% |
| CNC(=O)C[C@H](Cc1ccc(C#N)cc1)NC(=O)c1cc(-c2ccc(CN[C@H](C)c3ccc(C)cc3)o2)ccc1Cl | enzyme activity, inhibitor | 1 µM |  | activity vs control | 112% |
| Nc1ncc(-c2cc(-c3cnn(CC(F)(F)F)c3)ncc2F)nc1C(=O)NC1CNCC(F)C1 (stereo not shown) | enzyme activity | 1 µM | relative to: DMSO control | remaining activity | 87.2% |
| CCN1CCN(Cc2ccc(NC(=O)c3ccc(C)c(NC(=O)c4cncc(-c5cccs5)c4)c3)cc2C(F)(F)F)CC1 | binding, competition with immobilised ligand | 1 µM |  | remaining binding | 30% |
| COc1c(Cl)cccc1Nc1c(-c2ccncc2C#C[C@@]2(C)CCCN2C(=O)/C=C/CN(C)C)[nH]c2c1C(=O)NCC2 | cell-free assay, competition with immobilised ligand | 3 µM |  | remaining binding | 80% |
| Cc1cnc2nc1Nc1cccc(c1)COC/C=C/COCc1cc(ccc1OCCN1CCOCC1)N2 | binding | 0.1 µM |  | remaining binding | 100% |
| CN1CC[C@@H](COc2cnc(C#N)cc2-c2ccn3nc(NC(=O)C4CC4)cc3c2)C1 | enzyme activity, inhibitor | 1 µM |  | inhibition | -8% |
| NC(=O)C[C@H]1CCc2sc3ncnc(O[C@H]4CC[C@H](N5CCOCC5)CC4)c3c21 | enzyme activity, inhibitor | 10 µM |  | inhibition | -22% |
| CCn1cc(C(=O)O)c(=O)c2c(N)c(F)c(NC3CCCCC3)cc21 | kinase activity | 0.1 µM, together with: ATP at Km |  | inhibition | -4.7% |
| Cc1cccc(O[C@H]2CCC[C@@H](C(C)CNCc3ccncc3)C2)c1 (relative stereo) | enzyme activity | 1 µM |  | inhibition | 0% |
| CN1CCN(Cc2ccc(-c3ccc(CO[C@H]4CCC[C@@H]4NC(=O)c4cc(-c5cnn(C)c5)cnc4N)cc3)cc2)CC1 | enzyme activity, inhibitor | 0.1 µM |  | inhibition | 8% |
| C=CC(=O)N1CCc2ccc(-n3c(=O)ccc4cnc5ccc(-c6cnn(C)c6)cc5c43)cc21 | KINOMEscan | 1 µM | relative to: DMSO control | remaining binding | 100% |
| O=C(Cc1ccc(OCc2ccccc2)cc1)NC1(C(=O)O)CCN(C(=O)c2ccc(-c3cccc(Cl)c3)cc2)CC1 | enzyme activity, inhibitor | 10 µM |  | activity vs control | 128% |
| C=CC(=O)Nc1cccc(-c2cnc3[nH]cc(C(=O)NC(C)(C)C)c3n2)c1 | enzyme activity, inhibitor | 0.1 µM |  | inhibition | 13% |
| CNC1C[S+]2CC[S+]3CC[S+](C1)[Ru-4]321([N]=C=S)[n]2c3ccc(OC)cc3c3c4c(c5cc(F)c[n+]1c5c32)C(=O)NC4=O (stereo not shown) | KinomeScan | 0.1 µM | relative to: untreated | remaining binding | 77% |
| O=C(O)CCC(=O)c1cccc(NS(=O)(=O)c2c[nH]c3ncccc23)c1 | kinase activity, radiometric | 10 µM |  | remaining activity | 109% |

Repeated from above:
| SMILES | test | setting | how to read | quantity | result |
| --- | --- | --- | --- | --- | --- |
| C=CC(=O)Nc1cccc(-c2cnc3[nH]cc(C(=O)NC(C)(C)C)c3n2)c1 | enzyme activity, inhibitor | 0.1 µM |  | inhibition | 13% |
| CNC1C[S+]2CC[S+]3CC[S+](C1)[Ru-4]321([N]=C=S)[n]2c3ccc(OC)cc3c3c4c(c5cc(F)c[n+]1c5c32)C(=O)NC4=O (stereo not shown) | KinomeScan | 0.1 µM | relative to: untreated | remaining binding | 77% |
